Measured values collected from several papers.
Each line is one published result; not all experiments were run side by side. Values joined by “and” are separate records of one study, mostly repeats; a detail may differ. ± marks the error that the study gave.

Structure (SMILES)	organism	test	test system	conditions	inhibition
O=C(Nc1cccc(C2=NCCN2)c1)Nc1cccc(C2=NCCN2)c1	Theileria equi	parasite growth, flow cytometry	horse erythrocytes, USDA Florida strain	0.01075 µM, 72 h	18.8%
O=C(Nc1ccc(Oc2ccc(Cl)cc2)c(Cl)c1)c1cc(I)cc(I)c1O	Trichomonas gallinae	CCK-8	–	20 µM, 24 h	55.2%
Nc1cc(Cl)ccc1C(=O)NCCCCNc1ccnc2cc(Cl)ccc12	Chromobacterium violaceum	violacein production	ATCC 31532	40 µM, quorum sensing reporter	29.5%
CN(C)[C@@H]1C(O)=C(C(N)=O)C(=O)[C@@]2(O)C(O)=C3C(=O)c4c(O)ccc(Cl)c4[C@@](C)(O)[C@H]3C[C@@H]12	Trichomonas gallinae	CCK-8	–	20 µM, 24 h	50.6%
Nc1ccccc1C(=O)NCCCCNc1ccnc2ccccc12	Chromobacterium violaceum	violacein production	ATCC 31532	10 µM, quorum sensing reporter	22.1%
CCc1nn(C)c2nc(-c3ccc(C(=O)O)cc3)nc(NCc3ccc(F)cc3)c12	Cryptosporidium parvum	parasite growth, immunofluorescence imaging	HCT-8, Iowa	2 µM	76.2% and 72.4%
Oc1c(Br)cc(Br)c2cccnc12	Trichomonas gallinae	CCK-8	–	20 µM, 24 h	51%
O=c1c(O)c(-c2ccc(O)c(O)c2)oc2cc(O)cc(O)c12	Chromobacterium violaceum	violacein production	ATCC 31532	400 µM, quorum sensing reporter	64.2%
COC[C@H]1O[C@@H]2O[C@@H]3[C@@H](OC)[C@@H](OC)[C@@H](O[C@@H]4[C@@H](OC)[C@@H](OC)[C@@H](O[C@@H]5[C@@H](OC)[C@@H](OC)[C@@H](O[C@@H]6[C@@H](OC)[C@@H](OC)[C@@H](O[C@@H]7[C@@H](OC)[C@@H](OC)[C@@H](O[C@@H]1[C@@H](OC)[C@H]2OC)O[C@@H]7COC)O[C@@H]6COC)O[C@@H]5COC)O[C@@H]4COC)O[C@@H]3COC	Escherichia coli	LuxR reporter, antagonist	DH5α sensor strain	1 µM, together with: OHHL 200 nM	-3 ± 2%
